Measurements of several laboratories.
Numbered parts are unrelated; each lists some results of a single study.

Sample 1 — method: protein-binding microarray; form: double-stranded DNA, one strand shown; sample: in vitro; tested at: 940 nM top; setting: 60-bp whole probe; together with: salmon DNA 0.4 mg/ml; relative to: random background probes; direction: higher = stronger binding; endpoint: fitted relative affinity; shared flanks, not repeated: GCCTAGCACT … GTCTTGATTCGCTTGACGCTGCTG
Target: Interferon regulatory factor 5, full length, phosphomimetic (IRF5, Homo sapiens, UniProt Q13568-2, residues 1-514, S451D/S453D/S456D/S462D)
CATCTCTGCTTCTGTAACTGTGCTAG: 1.12 z-score
CCATTTTCTAAATGCCCTGGTGCTAG: 0.268 z-score
CTGTCCTGATAGCCCTGGCGTGCTAG: -0.297 z-score
AATTTCCATTTTCTAAATGCGTGCTA: 0.711 z-score
TAGATCTCAGTTTCCATTAGTGCTAG: 1.31 z-score
TAGATCTCAGATTCGATTAGTGCTAG: 0.41 z-score

Sample 2 — method: RNA Bind-n-Seq; form: RNA; sample: in vitro; tested at: 365 nM; relative to: no-protein control; direction: higher = stronger binding; endpoint: RBNS enrichment (R)
Target: RNA binding protein fox-1 homolog 2, RRM domain, GST-SBP tag (RBFOX2, Homo sapiens, UniProt O43251-10, residues 100-194)
Setting: natural RNA segment, single round, ends assumed
GGGAGUUCUACAGUCCGACGAUCCUGCGGGUUGUAGCUAAAUAUUCCAUUUCUUUGAAAUCAUGUUUCUAAAUUCUUUACCAUCAGAAAGAAAAGGAGUGUCAUACACUUUCAAGGGAAGGCUUGGUCUGCGUUGGAAUUCUCGGGUGCCAA: 0.412
GGGAGUUCUACAGUCCGACGAUCGGCAGCAGAAGGGACUGGUGUAUCCUUAUAGACACUUUUCUAUGAACUCUUCAAAAAUGGUCACAGAAUGCCUUUUAAAAUACUGUAUAUAGUCUUCACUGCUUCACCUUUGGAAUUCUCGGGUGCCAA: 0.627
GGGAGUUCUACAGUCCGACGAUCCAGAUUCACCAGUCUGCCCUGUCACGUAGUUGAAGGAGUUGCAUUUAUCUUUCUGGCUCCUAAUUCCUUUAAAAUUACAUUUGUUGCAGAACCUCCACAAGGCUAAAUAAUGGAAUUCUCGGGUGCCAA: 14.1
GGGAGUUCUACAGUCCGACGAUCCAUCGUGUCUGUCCUGAGAGGCUCCACAAUGCCCACCCGCAUCGCCAUUCUGUAGUCUUCAGGGUCAGCUGUUGAUAAAGGGGCAGGCUUGCGUUAUUGGCCUAGAUUUUUGGAAUUCUCGGGUGCCAA: 0.487

Sample 3 — method: protein binding microarray; form: double-stranded DNA, one strand shown; sample: in vitro; tested at: not given; relative to: not given; direction: higher = stronger binding; endpoint: E-score
Target: Histone acetyltransferase KAT6A, both winged helices, GST fusion (KAT6A, Homo sapiens, UniProt Q92794, residues 1-181)
Setting: 8-mer, flanks averaged, mean of 2 arrays, mostly near background
Target sequence (chain): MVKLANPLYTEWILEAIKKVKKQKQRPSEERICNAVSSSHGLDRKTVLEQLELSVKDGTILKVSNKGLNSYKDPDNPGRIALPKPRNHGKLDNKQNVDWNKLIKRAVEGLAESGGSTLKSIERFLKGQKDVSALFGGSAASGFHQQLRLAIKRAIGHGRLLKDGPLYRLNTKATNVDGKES
ACCGGATG: 0.0867
CGCATTCA: 0.155
GTCCGCCA: 0.0979
GTCTGCGA: 0.0105
AAACTACT: -0.0948

Mixed results
PhoQ, residues 284 288 289 292 302 303 AANNSF  fold induction (PhoP, residues 12 14 15 18 19 LHSVW (Escherichia coli, UniProt P23836); Sort-seq, refers to: YFP reporter; E. coli; PhoQ-PhoP variant library, together with: 10 µM Mg2+; relative to: high Mg2+ state, higher = stronger signaling): 8.37

A few entries again (sample 2):
GGGAGUUCUACAGUCCGACGAUCCUGCGGGUUGUAGCUAAAUAUUCCAUUUCUUUGAAAUCAUGUUUCUAAAUUCUUUACCAUCAGAAAGAAAAGGAGUGUCAUACACUUUCAAGGGAAGGCUUGGUCUGCGUUGGAAUUCUCGGGUGCCAA: 0.412
GGGAGUUCUACAGUCCGACGAUCGGCAGCAGAAGGGACUGGUGUAUCCUUAUAGACACUUUUCUAUGAACUCUUCAAAAAUGGUCACAGAAUGCCUUUUAAAAUACUGUAUAUAGUCUUCACUGCUUCACCUUUGGAAUUCUCGGGUGCCAA: 0.627
GGGAGUUCUACAGUCCGACGAUCCAGAUUCACCAGUCUGCCCUGUCACGUAGUUGAAGGAGUUGCAUUUAUCUUUCUGGCUCCUAAUUCCUUUAAAAUUACAUUUGUUGCAGAACCUCCACAAGGCUAAAUAAUGGAAUUCUCGGGUGCCAA: 14.1
